Experimental data collected from several papers.
Compare with care: the assays were run in different laboratories. ± gives the spread as reported. Values after ≈ are worked out from the molar mass of the structure shown.

Substance | tested on | assay | system | conditions | how to read | measurement | value
pinnatoxin A | nicotinic acetylcholine receptor (Torpedo marmorata) | binding |  | methanol standard, together with: biotin-α-bungarotoxin 80 nM |  | IC50 | 75.8 ± 7.09 nM
COc1cccc(C(=O)N2CCN(C(=O)COc3cccc(C)c3)CC2)c1OC | PC-3 | qPCR, item: INK4A/ARF |  | 250 µM, 12 h | baseline: DMSO | mRNA level increase | ~25%
C[C@H](NP(=O)(Nc1ccn([C@H]2CS[C@@H](COP(=O)(N[C@@H](C)C(=O)OCc3ccccc3)N[C@@H](C)C(=O)OCc3ccccc3)O2)c(=O)n1)N[C@@H](C)C(=O)OCc1ccccc1)C(=O)OCc1ccccc1 | Caco-2 | cell proliferation |  | 3 d |  | IC50 | > 250000 nM
NC12CC3CC(CC(C3)C1)C2 | Influenza A virus | viral replication, plaque size reduction | MDCK, A/Swine/Indiana/24-0218/2010 (H1N2) |  |  | EC50 | > 100000 nM
Nc1ccc([As]2SCCS2)cc1 | NCM460 | cell viability, MTS |  |  |  | IC50 | 11100 ± 820 nM
Cc1cc(/C=C/C#N)cc(C)c1Oc1nc(NC2CCN(Cc3ccc(P(C)(C)=O)cc3)CC2)nc2ccsc12 | HIV-1 |  | MT-4, K103N |  | baseline: doravirine EC50 over cpd EC50 | EC50 fold change | ~10.9 fold
C#CC(=O)Nc1ccc([As]2SCCS2)cc1 | DLD-1 | cell viability, MTS |  |  |  | IC50 | 1410 ± 590 nM
C[C@H](NP(=O)(Nc1ccn([C@H]2CS[C@@H](CO)O2)c(=O)n1)N[C@@H](C)C(=O)OCc1ccccc1)C(=O)OCc1ccccc1 | CEM/TK− | cell proliferation |  | 72 h |  | IC50 | 139000 ± 67000 nM
Nc1ncnc2c1ncn2[C@@H]1O[C@H](COP(=O)(O)OP(=O)(O)OP(=O)(O)O)[C@@H](O)[C@H]1O | nicotinamide mononucleotide adenylyltransferase R133A, His-tagged | substrate |  |  | baseline: R133A over wild type | K0.5 increase | 4 fold
pinnatoxin G | nicotinic acetylcholine receptor (Torpedo marmorata) | binding |  | together with: biotin-α-bungarotoxin 80 nM |  | Ki | 5.2 ± 1.33 nM
CCCN1CCC=C(c2cc(-c3ccc(C)cc3)no2)C1 | hippocampal neurons |  |  | concentration not given, together with: RML PrPSc |  | dendritic spine density | 0.77 ± 0.01 spines/µm
gymnodimine A | nicotinic acetylcholine receptor (Torpedo marmorata) | binding |  | together with: biotin-α-bungarotoxin |  | Hill slope | 0.82 ± 0.09
CSCC[C@@H]1NC(=O)[C@H](CC(C)C)NC(=O)[C@H](CCCNC(=N)N)NC(=O)[C@H](CO)NC(=O)[C@@H]2CSSC[C@@H]3NC(=O)[C@H](CO)NC(=O)CNC(=O)[C@H]([C@@H](C)O)NC(=O)[C@H](CSSC[C@H](N)C(=O)N[C@@H](CCCCN)C(=O)NCC(=O)N[C@@H](CCCCN)C(=O)NCC(=O)N[C@@H](C)C(=O)N[C@@H](CCCCN)C(=O)N2)NC(=O)[C@H](CSSC[C@@H](C(N)=O)NC(=O)[C@H](CCCCN)NC(=O)CNC(=O)[C@H](CO)NC(=O)[C@H](CCCNC(=N)N)NC3=O)NC(=O)[C@H](CC(=O)O)NC(=O)[C@H](Cc2ccc(O)cc2)NC1=O | Candida kefyr |  |  |  |  | MIC | 28.8 µM (≈ 76 µg/mL)
CN1CC[C@]23c4c5ccc(O)c4O[C@H]2[C@@H](O)C=C[C@H]3[C@H]1C5 |  | locomotor activity | C57BL/6J male mice | subcutaneous |  | ED50 | 3.3 mg/kg
13,19-didesmethyl spirolide C | nicotinic acetylcholine receptor (Torpedo marmorata) | binding |  | together with: biotin-α-bungarotoxin 80 nM |  | Ki | 0.8 ± 1.22 nM
Pillar[6]MaxQ |  | host-guest binding, isothermal titration calorimetry | PBS | together with: fentanyl |  | Kd | 78 nM
20-methyl spirolide G | nicotinic acetylcholine receptor (Torpedo marmorata) | binding |  | together with: biotin-α-bungarotoxin 80 nM |  | Ki | 6.63 ± 1.09 nM
AEOL 10150 |  | HPLC-electrochemical | rat, status epilepticus model, plasma | sc, 7 mg/kg every 4 h, 24 h, dosing from 15 min after SE |  | cystine level | decreased

Some of these lines once more:
Substance | tested on | assay | system | conditions | how to read | measurement | value
pinnatoxin G | nicotinic acetylcholine receptor (Torpedo marmorata) | binding |  | together with: biotin-α-bungarotoxin 80 nM |  | Ki | 5.2 ± 1.33 nM
CSCC[C@@H]1NC(=O)[C@H](CC(C)C)NC(=O)[C@H](CCCNC(=N)N)NC(=O)[C@H](CO)NC(=O)[C@@H]2CSSC[C@@H]3NC(=O)[C@H](CO)NC(=O)CNC(=O)[C@H]([C@@H](C)O)NC(=O)[C@H](CSSC[C@H](N)C(=O)N[C@@H](CCCCN)C(=O)NCC(=O)N[C@@H](CCCCN)C(=O)NCC(=O)N[C@@H](C)C(=O)N[C@@H](CCCCN)C(=O)N2)NC(=O)[C@H](CSSC[C@@H](C(N)=O)NC(=O)[C@H](CCCCN)NC(=O)CNC(=O)[C@H](CO)NC(=O)[C@H](CCCNC(=N)N)NC3=O)NC(=O)[C@H](CC(=O)O)NC(=O)[C@H](Cc2ccc(O)cc2)NC1=O | Candida kefyr |  |  |  |  | MIC | 28.8 µM (≈ 76 µg/mL)
